Published values pooled from the literature.
Parts stem from different laboratories: compare values within a part only. Changes are numbered by the printed parent chain.

Block 1 — technique: DNA-protein interaction ELISA; form: double-stranded DNA, one strand shown; matrix: in vitro, bacterial lysate; tested at: not given; setting: whole dsDNA probe, crude lysate protein; baseline: highest signal in screen; reading: higher = stronger binding
Target: Probable WRKY transcription factor 33, C-terminal DNA-binding domain (WRKY33, Arabidopsis thaliana, UniProt Q8S8P5, residues 346-449)
Residues (chain): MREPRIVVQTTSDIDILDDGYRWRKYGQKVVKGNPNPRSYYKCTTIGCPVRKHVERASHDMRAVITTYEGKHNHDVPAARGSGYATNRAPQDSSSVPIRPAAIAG
`AAAAAAAGTTACCAGTACGCGTCGGGAAAA` has a relative absorbance of 52.3 % of maximum.
`AAAAAAGCTTCTCATGTTGTCTTAGGAAAA` gave a relative absorbance of 33.5 % of maximum.
With `AAAAAACGTTAACACTGATTTAGGGTAAAA` the relative absorbance was 24.6 % of maximum.
`AAAAAAAGGTCATTGCTGCTGGTGTTAAAA` has a relative absorbance of 91.6 % of maximum.

Block 2 — target: CCND3, cyclin fold, Cln2 fusion (human); technique: yeast growth competition, sequencing; matrix: yeast; setting: weak parent motif; baseline: not given; reading: higher = stronger binding
Parent: AKAP12 docking peptide (human); GSPLKKLFTSTGL; partner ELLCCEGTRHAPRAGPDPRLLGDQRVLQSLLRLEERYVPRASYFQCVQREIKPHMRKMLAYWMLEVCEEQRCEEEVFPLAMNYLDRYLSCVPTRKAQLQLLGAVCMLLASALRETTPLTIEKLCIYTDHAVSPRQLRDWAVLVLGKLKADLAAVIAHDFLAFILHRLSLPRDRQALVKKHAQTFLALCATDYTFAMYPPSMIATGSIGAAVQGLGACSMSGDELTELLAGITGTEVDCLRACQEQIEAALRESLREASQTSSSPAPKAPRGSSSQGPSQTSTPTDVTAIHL
For `L13A`, “normalised enrichment score” read 0.0966.
For `G12A`, “normalised enrichment score” read -0.0338.
`P3A` — result for “normalised enrichment score”: 0.112.

Block 3 — technique: aptamer microarray, sandwich; form: DNA with 2'F-ANA; matrix: in vitro; tested at: 200 nM; with: Cy3 exosite-II aptamer, 400 nM; reading: higher = stronger binding; oligonucleotide: GGTTGGTGTGGTTGG
Target: Prothrombin, mature alpha-thrombin (F2, Homo sapiens, UniProt P00734)
Setting: whole 15-mer aptamer, many near background
`2'F-ANA at 5 6 8 12 13 15`: “mean fluorescence intensity” 111 a.u.
For `2'F-ANA at 1 3 4 10 12 13 15`, “mean fluorescence intensity” read 76.6 a.u.
Under “mean fluorescence intensity”, `2'F-ANA at 2 3 5 7 9 10 11 12 13 14 15` is recorded as 52 a.u.
`2'F-ANA at 1 3 4 7 10 11 13` — result for “mean fluorescence intensity”: 55.6 a.u.
For `2'F-ANA at 1 2 6 8 9 13`, “mean fluorescence intensity” read 121 a.u.
`2'F-ANA at 2 8 9 11 13 14 15` — result for “mean fluorescence intensity”: 110 a.u.
Under “mean fluorescence intensity”, `2'F-ANA at 3 4 7 8 9 10 11 14 15` is recorded as 176 a.u.

Single results of other studies
The fold induction of `PhoQ, residues 284 288 289 292 302 303 AEGLLW` is reported as 4.37 (PhoP, residues 12 14 15 18 19 IQSYL (Escherichia coli, UniProt P23836); Sort-seq, refers to: YFP reporter; E. coli; PhoQ-PhoP variant library, with: 10 µM Mg2+; baseline: high Mg2+ state, higher = stronger signaling).

Excerpt of the above (block 3):
`2'F-ANA at 1 3 4 7 10 11 13` — result for “mean fluorescence intensity”: 55.6 a.u.
For `2'F-ANA at 1 2 6 8 9 13`, “mean fluorescence intensity” read 121 a.u.
